Measured values gathered from unrelated publications.
Lines come from different studies, so protocols differ. ± gives the spread as reported.
Cell line: HEK-293T

SMILES | test | conditions | scale | measurement | result
COc1cc(NC(=O)c2cnn(-c3ccc([N+](=O)[O-])cc3)c2C(F)(F)F)cc(OC)c1 | cell viability, MTS | 50 µM, 72 h | – | inhibition | 7.79 ± 0.81%
C=C1C[C@](OC)([C@H](OCOC/C=C/B2OC(CC)(CC)C(CC)(CC)O2)C(=O)NC[C@@H]2C[C@@H](OC)C(C)(C)[C@@H](C[C@@H](COC)OC)O2)O[C@H](C)[C@@H]1C | cell viability, sulforhodamine B | 48 h, 37 °C, together with: H2O2 100 µM | – | IC50 | 61 ± 6 nM
CCCC(=O)[O-].[Na+] | – | 20 mM, 24 h, together with: SAHA | – | histone lysine methacrylation | increased
Cc1ccc(Cn2cc(COc3cccc(Cc4cnc(NC(=O)CSc5nc(C)cc(C)n5)s4)c3)nn2)cc1 | cell viability, MTS | 10 µM | – | inhibition | 55.1 ± 8%
CCCCCCCCCCCCCCCC(=O)N[C@@H](CO)C(=O)N[C@H]1CNC(=O)[C@@H]2CCCN2C(=O)[C@H]([C@@H](C)CC)NC(=O)[C@@H]([C@@H](C)O)NC(=O)CNC(=O)[C@H](CO)NC(=O)CNC(=O)[C@H](CC(=O)O)NC(=O)CNC(=O)[C@H]2CCCCN2C1=O | cytotoxicity, MTT | – | – | IC50 | > 128 µg/mL
CCc1cnc(N2CCC(c3nc(COc4ccc(-n5cnnn5)cc4)cs3)CC2)nc1 | RNA-seq GSEA, refers to: HALLMARK_E2F_TARGETS | concentration not given | direction not given | normalized enrichment score | -1.54
CC(C)Cc1ccc([C@@H](C)[C@H](O)CC(C)C)cc1 (racemic) | – | 250 µM, 48 h | – | cells killed | 95%
Cc1cc(C)nc(SCC(=O)Nc2ncc(Cc3cccc(OCc4cn(Cc5ccccc5C)nn4)c3)s2)n1 | cell viability, MTS | 10 µM | – | inhibition | 18.4 ± 2.9%
C=C1CN(S(=O)(=O)c2ccc(OC)cc2)CCCN(CC2CCCCC2)CCCN(S(=O)(=O)c2ccc(N(C)C)cc2)C1.Cl | Alamar Blue | 1 µM | – | reduction in viability | 50%
O=c1[nH]nc(OCCCc2ccc(Cl)cc2)c(NCc2cccnc2)c1Br | RNA-seq GSEA, refers to: HALLMARK_KRAS_SIGNALING_UP | concentration not given | direction not given | normalized enrichment score | -0.975
O=c1[nH]cc(F)c(=O)[nH]1 | cell viability, MTS | 50 µM, 72 h | – | inhibition | 73 ± 2.35%

For quick reference, copied from above:
SMILES | test | conditions | scale | measurement | result
CCCC(=O)[O-].[Na+] | – | 20 mM, 24 h, together with: SAHA | – | histone lysine methacrylation | increased
Cc1ccc(Cn2cc(COc3cccc(Cc4cnc(NC(=O)CSc5nc(C)cc(C)n5)s4)c3)nn2)cc1 | cell viability, MTS | 10 µM | – | inhibition | 55.1 ± 8%
